Measurements from different studies.
Protocols differ between the studies behind these lines. ± marks the error that the study gave.
Oprm1: Mu-type opioid receptor (Oprm1, Rattus norvegicus, UniProt P33535)
Sequence of UniProt P33535 (whole entry, looked up): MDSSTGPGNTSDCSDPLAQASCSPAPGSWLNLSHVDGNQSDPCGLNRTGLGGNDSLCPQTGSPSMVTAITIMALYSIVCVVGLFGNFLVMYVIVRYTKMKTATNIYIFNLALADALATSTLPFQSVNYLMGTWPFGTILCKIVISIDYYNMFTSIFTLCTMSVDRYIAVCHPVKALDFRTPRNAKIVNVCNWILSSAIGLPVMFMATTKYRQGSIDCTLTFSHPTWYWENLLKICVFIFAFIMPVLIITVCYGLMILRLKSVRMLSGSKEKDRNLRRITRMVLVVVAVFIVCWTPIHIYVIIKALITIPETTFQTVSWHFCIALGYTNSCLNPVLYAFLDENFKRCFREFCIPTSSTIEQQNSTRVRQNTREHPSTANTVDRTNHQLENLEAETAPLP
Sequence of UniProt P41595 (whole entry, looked up): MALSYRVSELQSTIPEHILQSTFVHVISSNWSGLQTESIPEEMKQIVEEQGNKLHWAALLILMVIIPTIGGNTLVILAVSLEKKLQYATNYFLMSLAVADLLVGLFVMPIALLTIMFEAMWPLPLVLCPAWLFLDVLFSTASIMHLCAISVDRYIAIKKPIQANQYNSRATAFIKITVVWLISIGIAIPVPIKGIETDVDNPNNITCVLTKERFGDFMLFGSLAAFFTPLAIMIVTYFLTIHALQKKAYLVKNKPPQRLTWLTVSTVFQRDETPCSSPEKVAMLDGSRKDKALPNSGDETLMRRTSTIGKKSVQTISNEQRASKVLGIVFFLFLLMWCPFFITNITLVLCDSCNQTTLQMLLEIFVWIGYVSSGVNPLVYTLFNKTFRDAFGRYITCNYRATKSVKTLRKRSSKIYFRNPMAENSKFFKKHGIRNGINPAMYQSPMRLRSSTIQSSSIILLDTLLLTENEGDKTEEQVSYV
Sequence of UniProt Q9Y2U5 (whole entry, looked up): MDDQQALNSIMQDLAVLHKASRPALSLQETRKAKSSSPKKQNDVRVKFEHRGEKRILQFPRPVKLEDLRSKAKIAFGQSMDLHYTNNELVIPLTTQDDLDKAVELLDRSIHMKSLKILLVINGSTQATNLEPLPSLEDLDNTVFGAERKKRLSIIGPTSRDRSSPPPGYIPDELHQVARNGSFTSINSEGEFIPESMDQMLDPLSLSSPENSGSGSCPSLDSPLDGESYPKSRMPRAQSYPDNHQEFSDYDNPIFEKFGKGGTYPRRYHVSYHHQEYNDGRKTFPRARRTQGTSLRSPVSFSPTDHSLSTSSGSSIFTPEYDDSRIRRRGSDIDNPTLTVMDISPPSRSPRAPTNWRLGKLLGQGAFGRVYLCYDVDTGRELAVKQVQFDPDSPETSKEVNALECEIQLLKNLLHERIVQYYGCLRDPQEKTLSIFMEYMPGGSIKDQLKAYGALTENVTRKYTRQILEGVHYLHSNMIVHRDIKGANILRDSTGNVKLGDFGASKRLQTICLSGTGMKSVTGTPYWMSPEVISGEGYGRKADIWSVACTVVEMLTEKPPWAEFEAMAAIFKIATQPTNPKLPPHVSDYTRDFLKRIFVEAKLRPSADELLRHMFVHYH
Sequence of UniProt Q9UBE8 (whole entry, looked up): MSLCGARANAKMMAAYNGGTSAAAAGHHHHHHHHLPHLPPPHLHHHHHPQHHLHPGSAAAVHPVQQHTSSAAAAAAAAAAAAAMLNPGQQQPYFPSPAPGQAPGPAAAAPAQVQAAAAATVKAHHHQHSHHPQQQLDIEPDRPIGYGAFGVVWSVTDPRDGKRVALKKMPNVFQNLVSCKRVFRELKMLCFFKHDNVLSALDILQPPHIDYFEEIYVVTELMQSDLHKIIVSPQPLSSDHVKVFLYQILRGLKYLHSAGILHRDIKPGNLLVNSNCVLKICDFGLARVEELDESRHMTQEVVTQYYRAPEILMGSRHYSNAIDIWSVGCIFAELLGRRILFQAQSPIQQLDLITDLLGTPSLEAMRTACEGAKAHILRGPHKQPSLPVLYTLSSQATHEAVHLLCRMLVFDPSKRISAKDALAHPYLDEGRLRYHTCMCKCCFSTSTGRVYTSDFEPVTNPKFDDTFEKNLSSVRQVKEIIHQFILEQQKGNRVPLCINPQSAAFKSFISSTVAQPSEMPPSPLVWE
Sequence of UniProt P21802 (whole entry, looked up): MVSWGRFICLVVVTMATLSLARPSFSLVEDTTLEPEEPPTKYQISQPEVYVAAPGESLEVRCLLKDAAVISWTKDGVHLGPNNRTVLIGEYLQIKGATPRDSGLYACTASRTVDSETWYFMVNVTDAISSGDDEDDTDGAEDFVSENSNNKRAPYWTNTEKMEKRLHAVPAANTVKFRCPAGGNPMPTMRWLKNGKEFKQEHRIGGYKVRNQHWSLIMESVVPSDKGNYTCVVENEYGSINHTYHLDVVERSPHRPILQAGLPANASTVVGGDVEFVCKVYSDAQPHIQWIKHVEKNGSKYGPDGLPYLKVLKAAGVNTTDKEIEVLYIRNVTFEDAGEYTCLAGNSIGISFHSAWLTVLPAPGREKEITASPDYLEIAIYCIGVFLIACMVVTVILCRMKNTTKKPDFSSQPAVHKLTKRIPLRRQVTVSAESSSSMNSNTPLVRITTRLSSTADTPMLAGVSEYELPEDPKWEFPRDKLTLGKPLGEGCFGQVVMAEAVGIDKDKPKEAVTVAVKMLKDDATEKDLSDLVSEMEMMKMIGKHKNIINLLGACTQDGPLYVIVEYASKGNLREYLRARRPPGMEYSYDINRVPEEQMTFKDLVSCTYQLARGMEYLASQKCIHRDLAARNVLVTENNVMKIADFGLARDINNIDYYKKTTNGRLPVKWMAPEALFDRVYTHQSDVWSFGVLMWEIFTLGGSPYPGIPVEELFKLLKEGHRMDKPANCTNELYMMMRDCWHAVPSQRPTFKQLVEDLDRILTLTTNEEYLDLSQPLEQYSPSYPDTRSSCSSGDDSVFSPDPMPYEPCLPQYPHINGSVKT
Sequence of UniProt Q9UPE1 (whole entry, looked up): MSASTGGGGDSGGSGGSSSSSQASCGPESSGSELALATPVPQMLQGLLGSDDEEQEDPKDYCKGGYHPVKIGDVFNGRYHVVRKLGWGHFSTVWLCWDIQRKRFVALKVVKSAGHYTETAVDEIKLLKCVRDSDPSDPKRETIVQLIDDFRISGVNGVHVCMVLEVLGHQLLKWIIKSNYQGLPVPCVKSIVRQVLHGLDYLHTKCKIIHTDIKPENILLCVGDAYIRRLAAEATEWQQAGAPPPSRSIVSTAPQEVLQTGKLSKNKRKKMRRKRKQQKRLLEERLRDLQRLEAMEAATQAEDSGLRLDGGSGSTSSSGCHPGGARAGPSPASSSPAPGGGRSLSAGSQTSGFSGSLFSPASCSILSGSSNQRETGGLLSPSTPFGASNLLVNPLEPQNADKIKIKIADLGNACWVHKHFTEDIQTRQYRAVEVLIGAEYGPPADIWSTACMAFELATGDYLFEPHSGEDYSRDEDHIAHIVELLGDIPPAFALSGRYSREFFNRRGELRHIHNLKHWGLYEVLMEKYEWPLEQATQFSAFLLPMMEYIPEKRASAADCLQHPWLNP
Sequence of UniProt Q9NRM7 (whole entry, looked up): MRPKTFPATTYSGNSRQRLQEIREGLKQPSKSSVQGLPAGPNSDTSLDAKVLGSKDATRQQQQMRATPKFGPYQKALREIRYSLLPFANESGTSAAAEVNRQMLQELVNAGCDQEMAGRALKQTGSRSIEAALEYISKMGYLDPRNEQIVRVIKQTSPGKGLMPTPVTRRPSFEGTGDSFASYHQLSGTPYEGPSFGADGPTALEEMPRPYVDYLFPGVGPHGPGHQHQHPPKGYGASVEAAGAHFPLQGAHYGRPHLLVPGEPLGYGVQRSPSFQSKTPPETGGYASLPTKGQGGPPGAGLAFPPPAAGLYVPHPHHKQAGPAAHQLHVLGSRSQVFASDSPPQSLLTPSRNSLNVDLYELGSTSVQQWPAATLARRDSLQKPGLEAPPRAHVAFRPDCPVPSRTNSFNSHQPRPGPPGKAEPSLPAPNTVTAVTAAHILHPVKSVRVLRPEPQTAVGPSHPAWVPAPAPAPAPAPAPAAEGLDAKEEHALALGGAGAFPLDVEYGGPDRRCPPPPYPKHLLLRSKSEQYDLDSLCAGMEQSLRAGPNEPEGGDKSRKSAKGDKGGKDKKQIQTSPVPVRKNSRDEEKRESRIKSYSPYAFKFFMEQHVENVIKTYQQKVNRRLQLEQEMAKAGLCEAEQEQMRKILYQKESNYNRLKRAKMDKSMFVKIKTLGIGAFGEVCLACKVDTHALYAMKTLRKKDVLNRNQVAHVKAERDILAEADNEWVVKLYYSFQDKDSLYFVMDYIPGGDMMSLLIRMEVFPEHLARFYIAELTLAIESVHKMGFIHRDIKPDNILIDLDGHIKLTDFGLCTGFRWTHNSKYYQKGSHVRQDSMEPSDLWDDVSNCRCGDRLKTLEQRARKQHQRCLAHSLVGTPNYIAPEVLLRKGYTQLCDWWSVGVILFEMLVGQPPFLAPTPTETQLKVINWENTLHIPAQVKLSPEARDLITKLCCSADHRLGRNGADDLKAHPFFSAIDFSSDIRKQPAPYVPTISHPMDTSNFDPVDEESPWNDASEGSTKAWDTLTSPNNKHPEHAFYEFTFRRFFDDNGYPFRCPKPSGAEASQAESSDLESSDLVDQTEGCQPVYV

Structure (SMILES)	target or system	assay	test system	conditions	scale	endpoint	value
CCc1nnc(-c2c(OC)cc(-c3cnc4cc(-c5cnn(C)c5)ccn34)cc2OC)o1	5-hydroxytryptamine receptor 2B (HTR2B, Homo sapiens, UniProt P41595)	agonist radioligand, radioligand binding	–	10 µM, SafetyScreen44 5-HT2B replicate 2	lower = stronger displacement	remaining binding	92.2%
CN(C)[C@H]1C[C@@]23CC[C@@]4(O2)C(=CC[C@]2(C)[C@@H](c5ccc6ccncc6c5)CC[C@H]24)C=C3[C@@H](O)[C@@H]1O	Serine/threonine-protein kinase NLK (NLK, Homo sapiens, UniProt Q9UBE8)	ATP probe labelling, inhibitor, KiNativ profiling	–	0.1 µM	–	inhibition	12.5%
CC[C@@H](C)[C@@H]1CN([C@H](Cc2ccc3ccccc3c2)CN2CCC[C@H]2CN2CCNC[C@@H]2Cc2ccc3ccccc3c2)CCN1CCC12CC3CC(CC(C3)C1)C2	Oprm1	radioligand binding	rat brain membranes	500 nM, pH 7.5, 25 °C, with: 0.87 nM [3H]DAMGO	–	remaining binding	103 ± 8.18%
O=C1NC(=O)c2c1c1cc(F)c[n+]3c1c1c2c2cc(O)ccc2[n]1[Ru-4]312([N]=C=S)[S+]3CC[S+]1CC[S+]2CC3 (stereo not shown)	SRSF protein kinase 3 (SRPK3, Homo sapiens, UniProt Q9UPE1)	enzyme activity	–	100 nM, human enzyme, with: 10 µM ATP	relative to: untreated	remaining activity	68%
COc1ccccc1-c1n[nH]c2nc(N[C@H]3CC[C@H](NS(=O)(=O)CC(C)C)CC3)ncc12	cdc2-related kinase 12 (Leishmania donovani, UniProt A0A3S7WQK2)	competitor, bead pull-down competition	Leishmania donovani extract	0.4 µM	relative to: vehicle	remaining binding	13%
CCCCC1CNCCN1CC1CCCN1CC(CC1CCCCC1)N1CCN(CCCC2CCCC2)C(Cc2ccc(O)cc2)C1 (stereo not shown)	Oprm1	radioligand binding	rat brain membranes	500 nM, pH 7.5, 25 °C, with: 0.87 nM [3H]DAMGO	–	remaining binding	95.2 ± 7.33%
CC(C)[C@H]1NC(=O)C[C@H]2/C=C/CCSSC[C@@H](NC1=O)C(=O)N[C@H](Cc1cccc3ccccc13)C(=O)NCC(=O)O2	Mitogen-activated protein kinase kinase kinase 2 (MAP3K2, Homo sapiens, UniProt Q9Y2U5)	–	–	10 µM	–	inhibition	1.5%
COc1cc(Nc2nc(C)cc(-c3cnn4nc(OC)ccc34)n2)cc(C(F)(F)F)c1	Calcium-dependent protein kinase 1 (CDPK1, Plasmodium falciparum, UniProt P62344)	KINOMEscan binding	–	1000 nM	relative to: control	remaining binding	74%
O=C1NC2(CC2)COc2ncc(F)cc2[C@H]2COCCN2c2ccn3ncc1c3n2	–	–	Sprague-Dawley rat, male, serum	oral, 5 mg/kg/day, 4 weeks daily, end of recovery period	–	total cholesterol	1.24 ± 0.16 mmol/L
Oc1ccc(C[C@@H]2CN([C@@H](CC3CCCCC3)CN3CCC[C@H]3CN3CCNC[C@@H]3Cc3ccc4ccccc4c3)CCN2CCC23CC4CC(CC(C4)C2)C3)cc1	Oprm1	radioligand binding	rat brain membranes	500 nM, pH 7.5, 25 °C, with: 0.87 nM [3H]DAMGO	–	remaining binding	109 ± 4.67%
COc1ccccc1-c1n[nH]c2nc(NC3CCN(C(=O)Cc4ccc(F)cc4F)CC3)ncc12	cyclin 9 (Leishmania donovani, UniProt A0A2D1QVA3)	competition bead pull-down, measured: LINJ.32.0800	Leishmania donovani extract	10 µM	relative to: vehicle	remaining binding	9%
CCOC(=O)[C@@H]1Cc2c(cc([N+](=O)[O-])cc2[N+](=O)[O-])[C@H](O)[C@]12C(=O)Nc1ccc(Br)cc12	Fibroblast growth factor receptor 2 (FGFR2, Homo sapiens, UniProt P21802)	binding, competition with immobilised ligand	–	0.1 µM	–	remaining binding	51%
O=C(N[C@@H]1c2ccccc2C[C@H]1N1CCCC1)c1ccc(-c2ccnc3[nH]ccc23)nc1	Serine/threonine-protein kinase LATS2 (LATS2, Homo sapiens, UniProt Q9NRM7)	binding, competition with immobilised ligand	–	3 µM	–	remaining binding	0%
